Measurements collected from several papers.
Each line is one published result; not all experiments were run side by side.
GLP1R: Glucagon-like peptide 1 receptor (GLP1R, Homo sapiens, UniProt P43220)
UniProt Q14164, sequence (whole entry, looked up): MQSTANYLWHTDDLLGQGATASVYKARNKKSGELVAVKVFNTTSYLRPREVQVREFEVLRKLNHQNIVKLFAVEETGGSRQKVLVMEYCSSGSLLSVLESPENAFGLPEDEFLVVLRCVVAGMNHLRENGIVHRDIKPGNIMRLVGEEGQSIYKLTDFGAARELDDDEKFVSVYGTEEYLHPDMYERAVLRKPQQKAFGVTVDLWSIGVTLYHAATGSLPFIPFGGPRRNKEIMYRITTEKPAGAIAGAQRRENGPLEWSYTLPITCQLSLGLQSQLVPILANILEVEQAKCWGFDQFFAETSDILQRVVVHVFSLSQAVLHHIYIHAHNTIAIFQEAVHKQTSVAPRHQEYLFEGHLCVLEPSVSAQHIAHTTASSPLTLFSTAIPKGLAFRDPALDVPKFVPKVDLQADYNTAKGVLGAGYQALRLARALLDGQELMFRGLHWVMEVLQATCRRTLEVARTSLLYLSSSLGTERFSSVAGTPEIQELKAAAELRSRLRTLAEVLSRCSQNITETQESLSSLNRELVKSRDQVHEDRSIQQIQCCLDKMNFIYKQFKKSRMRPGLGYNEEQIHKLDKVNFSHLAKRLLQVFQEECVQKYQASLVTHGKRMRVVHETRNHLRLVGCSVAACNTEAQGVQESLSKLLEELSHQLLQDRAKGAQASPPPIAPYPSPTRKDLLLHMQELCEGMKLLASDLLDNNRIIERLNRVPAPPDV
UniProt P08908, sequence (whole entry, looked up): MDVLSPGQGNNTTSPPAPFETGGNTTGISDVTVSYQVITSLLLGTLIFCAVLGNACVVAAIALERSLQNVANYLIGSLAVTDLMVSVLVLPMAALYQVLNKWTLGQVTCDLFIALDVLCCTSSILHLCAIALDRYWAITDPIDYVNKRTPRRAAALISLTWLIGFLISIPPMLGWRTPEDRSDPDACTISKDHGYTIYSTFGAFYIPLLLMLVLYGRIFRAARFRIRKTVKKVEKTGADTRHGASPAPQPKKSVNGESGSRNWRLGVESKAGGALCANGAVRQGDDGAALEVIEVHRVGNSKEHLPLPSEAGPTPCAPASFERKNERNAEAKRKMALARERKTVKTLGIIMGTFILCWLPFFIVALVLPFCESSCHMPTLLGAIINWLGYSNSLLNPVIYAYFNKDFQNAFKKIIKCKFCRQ
UniProt Q9UM73, sequence (whole entry, looked up): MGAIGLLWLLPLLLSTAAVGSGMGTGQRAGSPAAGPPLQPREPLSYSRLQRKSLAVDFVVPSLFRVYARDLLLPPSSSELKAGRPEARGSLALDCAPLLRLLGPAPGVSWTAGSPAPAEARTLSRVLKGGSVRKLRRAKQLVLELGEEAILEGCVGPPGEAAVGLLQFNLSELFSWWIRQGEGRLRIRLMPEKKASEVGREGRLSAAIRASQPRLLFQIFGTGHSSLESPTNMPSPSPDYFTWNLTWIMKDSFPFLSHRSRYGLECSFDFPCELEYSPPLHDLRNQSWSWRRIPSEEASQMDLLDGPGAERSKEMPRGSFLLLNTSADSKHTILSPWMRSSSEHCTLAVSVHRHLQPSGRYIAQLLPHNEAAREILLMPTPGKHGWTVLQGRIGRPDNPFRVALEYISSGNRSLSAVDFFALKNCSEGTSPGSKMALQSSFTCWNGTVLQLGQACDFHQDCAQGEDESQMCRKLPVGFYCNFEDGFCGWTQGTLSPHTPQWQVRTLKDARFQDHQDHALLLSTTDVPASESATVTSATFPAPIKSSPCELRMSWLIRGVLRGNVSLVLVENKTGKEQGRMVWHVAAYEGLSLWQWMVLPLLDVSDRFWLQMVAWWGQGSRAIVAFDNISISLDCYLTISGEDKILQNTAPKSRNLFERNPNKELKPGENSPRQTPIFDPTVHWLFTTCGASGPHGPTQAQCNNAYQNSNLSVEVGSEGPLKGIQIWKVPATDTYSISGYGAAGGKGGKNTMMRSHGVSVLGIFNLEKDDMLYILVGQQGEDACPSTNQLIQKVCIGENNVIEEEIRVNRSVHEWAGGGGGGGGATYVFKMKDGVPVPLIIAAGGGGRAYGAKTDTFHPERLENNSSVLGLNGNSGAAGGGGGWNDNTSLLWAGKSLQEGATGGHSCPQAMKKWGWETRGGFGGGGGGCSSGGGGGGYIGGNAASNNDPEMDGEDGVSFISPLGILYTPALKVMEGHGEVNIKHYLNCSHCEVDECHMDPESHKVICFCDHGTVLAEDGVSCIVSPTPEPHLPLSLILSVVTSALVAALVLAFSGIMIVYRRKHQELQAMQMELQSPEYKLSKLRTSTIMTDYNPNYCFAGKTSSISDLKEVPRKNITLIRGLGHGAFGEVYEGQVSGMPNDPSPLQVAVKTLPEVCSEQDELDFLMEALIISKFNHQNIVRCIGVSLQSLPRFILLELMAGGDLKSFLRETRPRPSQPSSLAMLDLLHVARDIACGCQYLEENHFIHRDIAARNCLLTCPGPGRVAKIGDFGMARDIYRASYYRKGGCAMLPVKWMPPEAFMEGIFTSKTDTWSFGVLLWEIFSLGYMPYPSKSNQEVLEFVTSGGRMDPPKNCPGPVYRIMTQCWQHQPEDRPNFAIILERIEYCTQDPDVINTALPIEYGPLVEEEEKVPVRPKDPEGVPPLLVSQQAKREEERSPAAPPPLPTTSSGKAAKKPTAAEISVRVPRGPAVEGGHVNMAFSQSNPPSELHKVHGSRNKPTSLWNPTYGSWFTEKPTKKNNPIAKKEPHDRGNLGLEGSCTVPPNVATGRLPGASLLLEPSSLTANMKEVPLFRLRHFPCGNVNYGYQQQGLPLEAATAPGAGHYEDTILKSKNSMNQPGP
UniProt O15197, sequence (whole entry, looked up): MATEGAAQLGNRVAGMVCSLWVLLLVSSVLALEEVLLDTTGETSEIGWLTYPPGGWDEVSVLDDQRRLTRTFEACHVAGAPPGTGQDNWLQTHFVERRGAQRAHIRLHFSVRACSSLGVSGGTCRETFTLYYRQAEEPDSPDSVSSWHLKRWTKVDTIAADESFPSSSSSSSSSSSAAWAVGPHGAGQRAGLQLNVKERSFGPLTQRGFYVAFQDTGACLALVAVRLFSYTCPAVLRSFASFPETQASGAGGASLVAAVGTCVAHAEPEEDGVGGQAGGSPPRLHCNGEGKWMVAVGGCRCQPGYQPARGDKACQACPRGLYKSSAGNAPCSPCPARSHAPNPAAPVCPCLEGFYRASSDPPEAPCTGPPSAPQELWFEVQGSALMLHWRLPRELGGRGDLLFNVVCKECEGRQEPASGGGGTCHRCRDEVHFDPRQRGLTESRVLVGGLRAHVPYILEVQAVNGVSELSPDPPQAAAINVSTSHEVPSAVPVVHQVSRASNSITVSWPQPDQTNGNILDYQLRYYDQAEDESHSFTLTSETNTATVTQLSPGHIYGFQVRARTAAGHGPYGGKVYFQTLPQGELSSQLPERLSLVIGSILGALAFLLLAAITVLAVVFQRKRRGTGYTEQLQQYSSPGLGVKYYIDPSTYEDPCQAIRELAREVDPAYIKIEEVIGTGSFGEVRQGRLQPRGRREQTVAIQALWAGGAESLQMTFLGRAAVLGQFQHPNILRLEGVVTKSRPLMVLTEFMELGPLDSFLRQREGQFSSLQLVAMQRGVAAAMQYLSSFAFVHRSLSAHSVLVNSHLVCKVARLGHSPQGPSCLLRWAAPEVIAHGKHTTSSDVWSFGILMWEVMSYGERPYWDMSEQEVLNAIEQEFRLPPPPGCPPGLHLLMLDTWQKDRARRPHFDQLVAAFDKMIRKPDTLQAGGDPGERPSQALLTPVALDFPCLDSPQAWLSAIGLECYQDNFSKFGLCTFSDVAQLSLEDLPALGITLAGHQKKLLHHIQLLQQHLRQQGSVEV
UniProt P49683, sequence (whole entry, looked up): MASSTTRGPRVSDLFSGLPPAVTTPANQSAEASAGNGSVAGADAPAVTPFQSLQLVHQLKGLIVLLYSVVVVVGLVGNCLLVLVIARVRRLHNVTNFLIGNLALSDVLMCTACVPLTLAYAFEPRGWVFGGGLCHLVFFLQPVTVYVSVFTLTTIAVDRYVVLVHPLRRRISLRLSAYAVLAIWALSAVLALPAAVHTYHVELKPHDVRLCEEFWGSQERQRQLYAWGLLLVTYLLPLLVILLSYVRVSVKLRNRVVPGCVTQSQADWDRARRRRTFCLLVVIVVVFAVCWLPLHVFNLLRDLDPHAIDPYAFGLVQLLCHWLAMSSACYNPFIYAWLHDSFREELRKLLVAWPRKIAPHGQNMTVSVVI
UniProt Q7L211, sequence (whole entry, looked up): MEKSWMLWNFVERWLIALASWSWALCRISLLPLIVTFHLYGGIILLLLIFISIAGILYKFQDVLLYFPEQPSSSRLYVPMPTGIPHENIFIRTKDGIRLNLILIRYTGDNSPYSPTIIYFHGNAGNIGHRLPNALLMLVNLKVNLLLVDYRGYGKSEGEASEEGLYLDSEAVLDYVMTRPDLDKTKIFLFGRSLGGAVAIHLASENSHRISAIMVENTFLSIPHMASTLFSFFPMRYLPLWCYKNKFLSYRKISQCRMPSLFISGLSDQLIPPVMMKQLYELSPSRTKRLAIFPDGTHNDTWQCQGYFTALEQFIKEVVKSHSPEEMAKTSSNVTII
UniProt Q96P68, sequence (whole entry, looked up): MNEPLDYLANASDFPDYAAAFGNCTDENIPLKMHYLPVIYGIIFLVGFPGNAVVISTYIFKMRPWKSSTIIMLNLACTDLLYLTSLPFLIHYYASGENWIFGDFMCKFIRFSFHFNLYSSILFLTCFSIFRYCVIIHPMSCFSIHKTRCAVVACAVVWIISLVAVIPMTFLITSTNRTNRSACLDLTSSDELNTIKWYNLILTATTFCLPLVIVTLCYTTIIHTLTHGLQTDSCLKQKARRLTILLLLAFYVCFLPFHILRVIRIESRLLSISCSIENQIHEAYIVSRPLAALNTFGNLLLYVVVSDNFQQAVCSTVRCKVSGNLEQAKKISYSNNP

| SMILES | target or system | assay | test system | setting | scale | measurement | value |
| --- | --- | --- | --- | --- | --- | --- | --- |
| COc1ccc(N2C(=O)N(c3c(C)cccc3Cl)Cc3cnc(Nc4ccc(C5CCN(C)CC5)cc4OC)nc32)nc1 | Inhibitor of nuclear factor kappa-B kinase subunit epsilon (IKBKE, Homo sapiens, UniProt Q14164) | kinase activity, inhibitor | – | 0.5 µM, kinase IKK-EPSILON | – | inhibition | 1.74% |
| COc1cc(Nc2ncc(F)c(Nc3ccc4c(n3)NC(=O)C(C)(C)O4)n2)cc(OC)c1OC | Ephrin type-B receptor 6 (EPHB6, Homo sapiens, UniProt O15197) | KINOMEscan | – | 10 µM | – | inhibition | 93% |
| CNC1(c2ccccc2Cl)CCCCC1=O (racemic) | 5-hydroxytryptamine receptor 1A (HTR1A, Homo sapiens, UniProt P08908) | radioligand binding, agonist, radioligand displacement | – | 30 µM | – | inhibition | 2% |
| O=C(c1ccc(Cl)cc1)N1CCN2C(=O)N(OC(=O)N3CCOc4ccccc43)C(=O)C2C1 (stereo not drawn) | Protein ABHD13 (ABHD13, Homo sapiens, UniProt Q7L211) | enzyme activity, inhibitor, MS-based ABPP | SW-620 in situ | 10 µM, 2 h, 37 °C | baseline: compound over DMSO, lower = stronger inhibition | median ratio | 1.24 |
| CC[C@H](C)[C@H](NC(=O)[C@H](Cc1ccccc1)NC(=O)[C@H](CCC(=O)O)NC(=O)[C@H](CCCNC(=N)N)NC(=O)[C@H](C)NC(=O)[C@H](C)NC(=O)[C@H](CCC(N)=O)NC(=O)[C@H](CCC(=O)O)NC(=O)[C@H](CCC(=O)O)NC(=O)[C@H](CC(C)C)NC(=O)[C@H](Cc1ccc(O)cc1)NC(=O)[C@H](CO)NC(=O)[C@H](CO)NC(=O)[C@H](CCCCNc1c(NCCCCCN(O)C(=O)CCC(=O)NCCCCCN(O)C(=O)CCC(=O)NCCCCCN(O)C(C)=O)c(=O)c1=O)NC(=O)[C@H](CC(=O)O)NC(=O)[C@H](CO)NC(=O)[C@@H](NC(=O)[C@H](Cc1ccccc1)NC(=O)[C@@H](NC(=O)CNC(=O)[C@H](CCC(=O)O)NC(=O)[C@H](C)NC(=O)CCc1cnc[nH]1)[C@@H](C)O)[C@@H](C)O)C(=O)N[C@@H](C)C(=O)N[C@@H](Cc1c[nH]c2ccccc12)C(=O)N[C@@H](CC(C)C)C(=O)N[C@H](C(=O)N[C@@H](CCCNC(=N)N)C(=O)NCC(=O)N[C@@H](CCCNC(=N)N)C(=O)N[C@@H](CCCCNC(=O)COCCOCCNC(=O)COCCOCCNC(=O)CC[C@H](NC(=O)CCCCCCCCCCCCCCCCC(=O)O)C(=O)O)C(=O)NCC(=O)NCC(=O)N[C@@H](CO)C(=O)N[C@@H](CCCCNc1c(NCCCCCN(O)C(=O)CCC(=O)NCCCCCN(O)C(=O)CCC(=O)NCCCCCN(O)C(C)=O)c(=O)c1=O)C(=O)O)C(C)C | GLP1R | cAMP reporter gene, agonist, CRE luciferase | BHK | with Zr, 0% HSA | – | EC50 | 55 pM |
| [2H]c1c([2H])c([C@]2([2H])CCCN2C(=O)C(C)(C)Oc2ccc3cn[nH]c3c2)c([2H])c([2H])c1C([2H])([2H])[2H] | ALK tyrosine kinase receptor (ALK, Homo sapiens, UniProt Q9UM73) | KINOMEscan | – | 1 µM | baseline: DMSO control | remaining binding | 100% |
| C[C@H]1CN(c2n[nH]c3nc(N[C@H]4CC[C@H](NS(=O)(=O)CCC(F)(F)F)CC4)ncc23)CCO1 | Tyrosine-protein kinase SYK (SYK, Homo sapiens, UniProt P43405) | inhibitor, Kinobeads competition profiling | – | 20 µM | baseline: vehicle | relative abundance | 1.09 |
| COc1cc(CCNC(C)c2ccccc2O)c(OC)cc1C#N (single isomer, unassigned; (+)) | 5-hydroxytryptamine receptor 2C (HTR2C, Homo sapiens, UniProt P28335) | calcium flux, agonist | – | – | baseline: 5-HT | Emax | 43% |
| Oc1ccc2c3c1O[C@H]1[C@@H](O)CC[C@@]4(O)[C@@H](C2)N(CC2CCC2)CC[C@]314 | Prolactin-releasing peptide receptor (PRLHR, Homo sapiens, UniProt P49683) | receptor activation, TANGO luminescence | – | concentration not given, unconfirmed screen | baseline: vehicle control | log2 fold change | 0.028 |
| CN1CCN(c2cc(-c3ccncc3)c(-c3ccc4ccccc4c3)nn2)CC1 | 2-oxoglutarate receptor 1 (OXGR1, Homo sapiens, UniProt Q96P68) | antagonist, FLIPR | – | 10 µM | – | inhibition | 3.1% |
| CC[C@H](C)[C@H](NC(=O)[C@H](Cc1ccccc1)NC(=O)[C@H](CCC(=O)O)NC(=O)[C@H](CCCNC(=N)N)NC(=O)[C@H](C)NC(=O)[C@H](C)NC(=O)[C@H](CCC(N)=O)NC(=O)[C@H](CCC(=O)O)NC(=O)[C@H](CCC(=O)O)NC(=O)[C@H](CC(C)C)NC(=O)[C@H](Cc1ccc(O)cc1)NC(=O)[C@H](CO)NC(=O)[C@H](CO)NC(=O)[C@@H](NC(=O)[C@H](CC(=O)O)NC(=O)[C@H](CO)NC(=O)[C@@H](NC(=O)[C@H](Cc1ccccc1)NC(=O)[C@@H](NC(=O)CNC(=O)[C@H](CCC(=O)O)NC(=O)[C@H](C)NC(=O)CCc1cnc[nH]1)[C@@H](C)O)[C@@H](C)O)C(C)C)C(=O)N[C@@H](C)C(=O)N[C@@H](Cc1c[nH]c2ccccc12)C(=O)N[C@@H](CC(C)C)C(=O)N[C@H](C(=O)N[C@@H](CCCNC(=N)N)C(=O)NCC(=O)N[C@@H](CCCNC(=N)N)C(=O)N[C@@H](CCCCNC(=O)COCCOCCNC(=O)COCCOCCNC(=O)CC[C@H](NC(=O)CCCCCCCCCCCCCCCCC(=O)O)C(=O)O)C(=O)NCC(=O)NCC(=O)N[C@@H](CO)C(=O)N[C@@H](CCSC)C(=O)N[C@H](C(=O)N[C@@H](CCCCNc1c(NCCCCCN(O)C(=O)CCC(=O)NCCCCCN(O)C(=O)CCC(=O)NCCCCCN(O)C(C)=O)c(=O)c1=O)C(=O)O)C(C)C)C(C)C | GLP1R | cAMP reporter gene, agonist, CRE luciferase | BHK | without Zr, 0% HSA | – | EC50 | 2.8 pM |
| Cc1[nH]c2ccc(O)cc2c1-c1csc(-c2c[nH]c3cc(O)ccc23)n1 | differentiated W12E | CUT&RUN-qPCR | – | concentration not given | baseline: untreated | 53BP1 binding at HPV ori | decreased |

Some of these lines once more:
| SMILES | target or system | assay | test system | setting | scale | measurement | value |
| --- | --- | --- | --- | --- | --- | --- | --- |
| Cc1[nH]c2ccc(O)cc2c1-c1csc(-c2c[nH]c3cc(O)ccc23)n1 | differentiated W12E | CUT&RUN-qPCR | – | concentration not given | baseline: untreated | 53BP1 binding at HPV ori | decreased |
| Oc1ccc2c3c1O[C@H]1[C@@H](O)CC[C@@]4(O)[C@@H](C2)N(CC2CCC2)CC[C@]314 | Prolactin-releasing peptide receptor (PRLHR, Homo sapiens, UniProt P49683) | receptor activation, TANGO luminescence | – | concentration not given, unconfirmed screen | baseline: vehicle control | log2 fold change | 0.028 |
